Assay results from different studies.
Compare with care: the assays were run in different laboratories. Values joined by “and” are separate records of one study, mostly repeats; a detail may differ. Numbers after ± are the reported error.
UCHL1: Ubiquitin carboxyl-terminal hydrolase isozyme L1 (UCHL1, Homo sapiens, UniProt P09936)
Sequence of UniProt P09936 (whole entry, looked up): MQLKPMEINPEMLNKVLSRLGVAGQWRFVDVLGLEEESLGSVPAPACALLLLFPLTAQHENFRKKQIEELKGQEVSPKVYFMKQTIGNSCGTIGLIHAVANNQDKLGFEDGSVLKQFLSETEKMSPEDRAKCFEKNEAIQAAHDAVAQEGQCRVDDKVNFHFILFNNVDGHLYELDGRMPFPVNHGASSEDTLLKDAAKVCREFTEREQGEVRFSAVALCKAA
Sequence of UniProt Q07794 (whole entry, looked up): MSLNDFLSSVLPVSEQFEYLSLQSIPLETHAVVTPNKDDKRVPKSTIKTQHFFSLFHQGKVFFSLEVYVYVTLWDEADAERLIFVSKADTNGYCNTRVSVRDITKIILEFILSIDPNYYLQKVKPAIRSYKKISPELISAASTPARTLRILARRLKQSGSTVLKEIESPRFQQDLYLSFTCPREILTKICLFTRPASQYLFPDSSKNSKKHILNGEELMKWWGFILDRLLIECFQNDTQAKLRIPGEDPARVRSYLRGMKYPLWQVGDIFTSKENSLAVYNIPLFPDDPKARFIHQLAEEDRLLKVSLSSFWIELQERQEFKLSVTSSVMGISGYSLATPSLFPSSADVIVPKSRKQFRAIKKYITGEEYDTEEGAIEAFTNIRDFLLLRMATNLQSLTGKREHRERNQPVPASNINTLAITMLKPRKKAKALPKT

For `Cc1ccc(S(=O)(=O)n2cc3c4c2C(=O)C(NCc2ccc(Cl)cc2)=CC4=NCC3)cc1`, the plasma concentration was 438 ± 203 ng/mL (Sprague-Dawley rat, plasma; intravenous, 5 mg/kg, 1 h).
`COc1cc(F)c([C@@H]2CNC(=O)[C@H]2NC(=O)Nc2ccccc2)c(F)c1` has a plasma concentration of 15 ± 6 nM (Sprague-Dawley rats, LPS challenge, plasma; oral, 0.1 mg/kg, 3 h post dose).
`COc1cccc(-c2n[nH]c(SCc3ccccn3)n2)c1OC` gave a plasma concentration of 10400 ng/mL (Sprague-Dawley rats, both sexes; oral dietary, 100 mg/kg/day, day 90, 3 h).
The plasma concentration of `Cc1cccc(Cn2cc(CO)c3cnccc32)c1` is reported as 8 ng/mL and 6.2 ng/mL and 8.3 ng/mL (rat, plasma; oral, 100 mg/kg/day, 4 h, day 2).
With `Cc1ccc2c(c1)C(=O)[C@]1(O)CCN(c3ccc4nc(C)ccc4c3)C1=N2` the plasma concentration was 4800 ± 600 nM (rat, plasma; subcutaneous, 60 mg/kg, 1 h).
With `O=S1(=O)C=C(Sc2nc3ccccc3o2)c2ccccc21` the IC50 was over 125 µM (Histone acetyltransferase RTT109, with Vps75 (Saccharomyces cerevisiae, UniProt Q07794); enzyme activity, inhibitor, HTS, CPM-based, dose response).
The plasma concentration of `CC(C)c1nc(N(C)S(C)(=O)=O)nc(-c2ccc(F)cc2)c1/C=C/[C@@H](O)C[C@@H](O)CC(=O)O` is reported as 578 ng/mL (Wistar albino rat, both sexes, plasma; oral, 20 mg/kg, 1 h).
With `N#CC(=Cc1ccc(F)cc1)C(=O)Nc1ccccc1C(F)(F)F` the labelling was 10.1% (UCHL1; covalent, intact protein LC-MS; 12.5 µM).
With `CCOCc1nc(O)c(-c2nnc(Cc3ccc(Cl)cn3)o2)c(O)c1-c1c(OC)cccc1OC` the plasma concentration was 1640 nM (rat, anaesthetised, cannulated, plasma; intravenous infusion, 10 µg/kg/min, 15 min).
For `CC(C)(O)c1coc(S(=O)(=O)NC(=O)Nc2c3c(cc4c2CCC4)CCC3)c1`, the plasma concentration was 165 ng/mL (Sprague-Dawley rat, male, plasma; oral, 2 mg/kg, 2 h).
`Cc1ccc2c(c1)nc(/C=C/c1cccc3cccnc13)n2-c1cccc(OCCCN2CCN(C)CC2)c1` has a plasma concentration of 452 ± 108 nM (male Sprague-Dawley rat; oral, 10 mg/kg, 8 h).
With `O=C(CCl)N1N=C(c2ccccc2)CC1c1ccccc1` (centres unmarked) the labelling was 20.5% (UCHL1; covalent, intact protein LC-MS; 12.5 µM).
For `CCN(Cc1ccc(F)cc1)c1ccc(CO)c(Cl)c1`, the plasma concentration was 216 ng/mL and 109 ng/mL and 214 ng/mL (rat, plasma; oral, 100 mg/kg/day, 4 h, day 2).
`CC1=NN(c2ccccc2)C(=O)C1` has a plasma concentration of 3130 ± 960 ng/mL (rat Sprague-Dawley pups PN4, plasma; intraperitoneal, 30 mg/kg, 1 h).

Excerpt of the above:
`COc1cccc(-c2n[nH]c(SCc3ccccn3)n2)c1OC` gave a plasma concentration of 10400 ng/mL (Sprague-Dawley rats, both sexes; oral dietary, 100 mg/kg/day, day 90, 3 h).
